Measured values collected from several papers.
Protocols differ between the studies behind these lines. “And” joins repeats or separate records; there may be more than shown. Numbers after ± are the reported error.
CYP2C8: Cytochrome P450 2C8 (CYP2C8, Homo sapiens, UniProt P10632)
Chain of UniProt P11510 (whole entry, looked up): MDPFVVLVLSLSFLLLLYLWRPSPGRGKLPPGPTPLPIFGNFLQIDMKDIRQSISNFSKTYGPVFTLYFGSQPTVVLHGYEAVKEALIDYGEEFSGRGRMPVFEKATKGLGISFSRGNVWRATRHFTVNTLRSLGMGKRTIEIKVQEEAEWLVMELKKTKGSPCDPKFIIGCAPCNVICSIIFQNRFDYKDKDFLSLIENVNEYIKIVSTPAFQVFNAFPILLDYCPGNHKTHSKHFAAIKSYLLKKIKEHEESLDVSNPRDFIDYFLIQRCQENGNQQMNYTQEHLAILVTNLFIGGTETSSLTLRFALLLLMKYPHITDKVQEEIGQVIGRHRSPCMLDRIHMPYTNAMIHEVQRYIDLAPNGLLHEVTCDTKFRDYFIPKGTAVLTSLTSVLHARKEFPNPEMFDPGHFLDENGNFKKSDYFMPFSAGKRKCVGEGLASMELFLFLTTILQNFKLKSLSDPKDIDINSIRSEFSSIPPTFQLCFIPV
Chain of UniProt P10632 (whole entry, looked up): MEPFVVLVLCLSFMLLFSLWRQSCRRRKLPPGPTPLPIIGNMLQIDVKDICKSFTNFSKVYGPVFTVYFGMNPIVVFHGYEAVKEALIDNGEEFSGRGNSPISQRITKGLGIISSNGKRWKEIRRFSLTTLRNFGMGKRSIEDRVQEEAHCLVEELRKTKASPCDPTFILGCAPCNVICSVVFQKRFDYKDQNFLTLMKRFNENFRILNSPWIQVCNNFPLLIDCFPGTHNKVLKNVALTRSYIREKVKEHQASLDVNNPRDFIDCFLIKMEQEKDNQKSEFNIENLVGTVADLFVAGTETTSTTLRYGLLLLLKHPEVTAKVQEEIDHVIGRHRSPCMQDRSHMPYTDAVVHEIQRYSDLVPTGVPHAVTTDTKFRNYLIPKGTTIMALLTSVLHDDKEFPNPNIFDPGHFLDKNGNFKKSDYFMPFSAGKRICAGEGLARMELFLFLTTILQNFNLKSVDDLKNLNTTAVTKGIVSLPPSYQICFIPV
Chain of UniProt O55242 (whole entry, looked up): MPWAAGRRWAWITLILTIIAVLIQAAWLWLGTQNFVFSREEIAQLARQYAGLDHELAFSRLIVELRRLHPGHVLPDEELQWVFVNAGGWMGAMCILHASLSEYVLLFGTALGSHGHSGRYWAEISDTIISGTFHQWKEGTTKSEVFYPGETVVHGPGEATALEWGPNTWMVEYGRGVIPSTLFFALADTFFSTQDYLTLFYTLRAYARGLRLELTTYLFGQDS
Chain of UniProt O75469 (whole entry, looked up): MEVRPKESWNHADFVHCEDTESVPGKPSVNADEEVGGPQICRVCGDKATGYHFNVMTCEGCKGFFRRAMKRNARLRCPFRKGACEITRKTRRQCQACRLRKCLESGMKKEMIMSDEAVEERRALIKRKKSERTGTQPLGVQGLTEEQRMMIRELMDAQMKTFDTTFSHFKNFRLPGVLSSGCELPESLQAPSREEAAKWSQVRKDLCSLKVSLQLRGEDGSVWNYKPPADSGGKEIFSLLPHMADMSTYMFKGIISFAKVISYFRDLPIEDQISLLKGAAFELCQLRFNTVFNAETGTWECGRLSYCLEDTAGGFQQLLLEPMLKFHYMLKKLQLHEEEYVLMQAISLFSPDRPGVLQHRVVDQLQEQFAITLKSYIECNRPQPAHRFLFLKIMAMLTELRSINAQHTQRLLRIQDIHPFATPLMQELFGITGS
Chain of UniProt P08684 (whole entry, looked up): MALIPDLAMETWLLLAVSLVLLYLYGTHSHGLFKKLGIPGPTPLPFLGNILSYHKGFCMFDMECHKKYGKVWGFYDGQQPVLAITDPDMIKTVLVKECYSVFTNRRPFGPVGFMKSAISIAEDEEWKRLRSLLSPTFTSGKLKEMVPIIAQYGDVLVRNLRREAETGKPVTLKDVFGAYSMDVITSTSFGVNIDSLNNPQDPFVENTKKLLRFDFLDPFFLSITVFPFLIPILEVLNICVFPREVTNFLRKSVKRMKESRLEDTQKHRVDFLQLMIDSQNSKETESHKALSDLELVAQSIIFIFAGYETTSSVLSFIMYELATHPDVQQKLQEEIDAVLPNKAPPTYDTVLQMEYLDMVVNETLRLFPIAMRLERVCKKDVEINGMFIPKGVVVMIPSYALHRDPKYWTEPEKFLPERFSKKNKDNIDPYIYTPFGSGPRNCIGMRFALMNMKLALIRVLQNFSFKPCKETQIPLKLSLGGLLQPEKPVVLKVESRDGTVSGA
Chain of UniProt P27487 (whole entry, looked up): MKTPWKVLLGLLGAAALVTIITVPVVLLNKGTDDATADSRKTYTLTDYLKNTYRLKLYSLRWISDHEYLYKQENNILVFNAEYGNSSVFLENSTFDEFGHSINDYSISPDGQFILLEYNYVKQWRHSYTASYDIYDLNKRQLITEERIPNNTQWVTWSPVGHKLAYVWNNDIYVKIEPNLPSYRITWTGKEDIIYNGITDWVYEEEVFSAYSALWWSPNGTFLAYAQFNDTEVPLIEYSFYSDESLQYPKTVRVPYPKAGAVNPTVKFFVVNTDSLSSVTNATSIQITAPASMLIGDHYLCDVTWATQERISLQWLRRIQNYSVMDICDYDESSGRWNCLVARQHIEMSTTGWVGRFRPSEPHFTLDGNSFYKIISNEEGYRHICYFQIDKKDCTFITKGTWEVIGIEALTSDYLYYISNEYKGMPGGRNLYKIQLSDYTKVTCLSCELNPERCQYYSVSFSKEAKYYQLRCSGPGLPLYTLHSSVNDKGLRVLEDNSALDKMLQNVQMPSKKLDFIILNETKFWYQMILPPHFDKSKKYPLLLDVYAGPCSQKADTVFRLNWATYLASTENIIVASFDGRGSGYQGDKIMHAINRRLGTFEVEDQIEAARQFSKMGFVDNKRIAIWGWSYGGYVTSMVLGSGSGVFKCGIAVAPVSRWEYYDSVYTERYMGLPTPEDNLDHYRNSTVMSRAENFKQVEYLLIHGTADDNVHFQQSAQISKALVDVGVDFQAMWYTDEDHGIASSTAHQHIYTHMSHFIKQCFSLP
Chain of UniProt Q08499 (whole entry, looked up): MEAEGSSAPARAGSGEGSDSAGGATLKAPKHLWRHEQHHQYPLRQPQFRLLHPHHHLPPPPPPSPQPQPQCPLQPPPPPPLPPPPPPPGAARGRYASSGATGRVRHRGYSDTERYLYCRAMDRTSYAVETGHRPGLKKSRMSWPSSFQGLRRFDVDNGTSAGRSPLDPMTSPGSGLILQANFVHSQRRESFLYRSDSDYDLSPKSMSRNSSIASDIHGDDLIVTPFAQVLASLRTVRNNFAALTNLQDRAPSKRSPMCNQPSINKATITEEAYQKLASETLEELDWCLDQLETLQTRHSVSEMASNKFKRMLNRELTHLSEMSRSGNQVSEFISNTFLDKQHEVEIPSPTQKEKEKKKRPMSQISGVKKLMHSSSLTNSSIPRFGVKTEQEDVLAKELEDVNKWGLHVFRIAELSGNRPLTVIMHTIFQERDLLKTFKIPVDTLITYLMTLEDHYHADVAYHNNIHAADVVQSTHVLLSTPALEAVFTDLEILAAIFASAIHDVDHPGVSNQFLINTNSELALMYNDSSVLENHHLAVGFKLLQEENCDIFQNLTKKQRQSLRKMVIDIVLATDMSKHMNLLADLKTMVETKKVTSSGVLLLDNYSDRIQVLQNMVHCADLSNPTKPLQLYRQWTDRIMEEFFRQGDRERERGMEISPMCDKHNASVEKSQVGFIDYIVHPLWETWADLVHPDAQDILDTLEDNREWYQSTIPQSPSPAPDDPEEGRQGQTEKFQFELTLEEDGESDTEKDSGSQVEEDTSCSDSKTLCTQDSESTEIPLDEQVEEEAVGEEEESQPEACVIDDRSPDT

| Structure (SMILES) | target | assay | test system | conditions | scale | endpoint | value |
| --- | --- | --- | --- | --- | --- | --- | --- |
| [64Cu+2].c1ccc(CNCc2ccc(CN3CCCN4CCNCCCN(CC4)CC3)cc2)nc1 | CXCR4 | – | NOD/SCID mouse, U87 and U87-stb-CXCR4 xenografts, liver | iv, 480 min, ex vivo | – | tissue uptake | 82 ± 11.7 %ID/g |
| COc1ccc2cc(NC(=O)c3cc(-c4ccncc4)nc4ccccc34)ccc2c1 | Cytochrome P450 3A4 (CYP3A4, Homo sapiens, UniProt P08684) | substrate, item: metabolite M1 | baculosomes | – | – | kcat/Km | 11300 M⁻¹ s⁻¹ |
| C=CC(=O)Nc1cc(Nc2nccc(-c3cn(C)c4ccccc34)n2)c(OCC(F)(F)F)nc1N(C)CCN(C)C | CYP2C8 | enzyme activity, inhibitor | human, liver microsomes | 0.1 µM | – | activity vs control | 103% |
| COc1cc(-c2nc3ccccc3s2)cc(CN2Cc3cccc(n3)CNCc3cccc(n3)C2)c1O | copper(2+) ion | Cu2+ binding, from titration constants | aqueous solution | 50 µM, pH 6.6, Cu:ligand 1:1, equal totals | – | pCu | 11.7 |
| NS(=O)(=O)Nc1ncnc(OCCOc2ncc(Br)cn2)c1-c1ccc(Br)cc1 | Cytochrome P450 2C12, female-specific (Cyp2c12, Rattus norvegicus, UniProt P11510) | substrate, item: compound formation | rat, male | pH 7.4, mRNA abundance scaled | – | contribution to total CLint | < 0.1% and < 1% |
| NC(=O)N/N=C/c1ccccn1 | Fe2+ complex | potentiometric titration | – | 25 °C | – | log stability constant | 16.1 |
| C[C@H](NC(=O)[C@H](Cc1ccccc1)NC(=O)[C@H](CO)NC(=O)[C@H](CO)NC(=O)[C@@H](NC(=O)[C@H](CCCNC(=N)N)NC(=O)[C@@H]1CCCN1C(=O)[C@H](CCCNC(=N)N)NC(=O)CN)[C@@H](C)O)C(=O)N[C@@H](CCC(=O)O)C(=O)NCC(=O)O | pronase | substrate | – | – | – | time to degradation | ≤ 0.5 h |
| COc1cc(-c2nc3ccccc3s2)cc(CN2Cc3cccc(n3)CN(CC(=O)O)Cc3cccc(n3)C2)c1O | copper(2+) ion | Cu2+ binding, from titration constants | aqueous solution | 50 µM, pH 7.4, Cu:ligand 1:1, equal totals | – | pCu | 14.1 |
| C[C@H]1C[C@@H](Oc2cccc(F)n2)CCN1Cc1cnc(N[11C](C)=O)s1 | O-GlcNAcase (Macaca mulatta, UniProt F6QIP2) | PET | rhesus monkey, cerebellum | baseline | – | time to peak uptake | ~45 min |
| CSCC[C@H](NC(=O)[C@@H]1CCCN1C(=O)[C@@H](COC(C)(C)C)NC(=O)[C@@H](COC(C)(C)C)NC(=O)CNC(=O)CN1CCN(CC(=O)OC(C)(C)C)CCN(CC(=O)OC(C)(C)C)CCN(CC(=O)OC(C)(C)C)CC1)C(=O)NCC(=O)N[C@@H](CC(C)C)C(=O)N1CCC[C@H]1C(=O)O | Cathepsin S (CTSS, Homo sapiens, UniProt P25774) | cleavage, substrate | – | 72 h, pH 6.0, room temperature, un-metalated | – | fraction metabolized | 80% |
| NC(=S)N/N=C/c1ccccn1 | Fe2+ complex | potentiometric titration | – | 25 °C | – | log stability constant | 17.1 |
| [64Cu+2].c1cnc(CNCc2ccc(CN3CCCN4CCNCCCN(CC4)CC3)cc2)nc1 | CXCR4 | – | NOD/SCID mouse, U87 and U87-stb-CXCR4 xenografts, heart | iv, 240 min, ex vivo | – | tissue uptake | 1.47 ± 0.15 %ID/g |
| CCC1CC2C(C)=CC3C(=O)CCCC3C=CC(C)=CC2C(=O)O1 (stereo not shown) | CYP2C8 | – | human liver microsomes | 10 µM, 10 min, pH 7.4, with: amodiaquine 1 µM | reference: untreated | remaining activity | 121% |
| [11CH3]N1CCN(CCCOc2ccc(=O)n(-c3ccc(Cl)c(Cl)c3)n2)CC1 | Sigmar1 (Mus musculus, UniProt O55242) | radiotracer | mouse BALB/c male, whole brain | intravenous | – | Tmax | ~5 min |
| COc1cc(-c2nc3ccccc3s2)cc(CN2Cc3cccc(n3)CN(C)Cc3cccc(n3)C2)c1O | copper(2+) ion | Cu2+ binding, from titration constants | aqueous solution | 50 µM, pH 7.4, Cu:ligand 1:1, equal totals | – | pCu | 12.3 |
| [11CH3]Oc1ccc(Cc2cn[nH]c2)nc1-c1cccc([N+](=O)[O-])c1 | PDE4D (Homo sapiens, UniProt Q08499) | PET | – | concentration not given, about 4 min, baseline scan | – | peak brain radioactivity | 4.39 SUV |
| CNC(=S)N/N=C/c1ccccn1 | Fe2+ complex | potentiometric titration | – | 25 °C | – | log stability constant | 17.1 |
| CCC(=O)N(C)c1ccc(Cl)c(Cl)c1 | NR1I2 (Homo sapiens, UniProt O75469) | reporter gene, agonist | – | 10 µM | reference: vehicle | fold activation | 0.86 fold |
| CC[C@H](C)[C@H](NC(=O)[C@H](Cc1ccccc1)NC(=O)[C@H](CCC(=O)O)NC(=O)[C@H](CCCCN)NC(=O)[C@H](C)NC(=O)[C@H](C)NC(=O)[C@H](CCC(N)=O)NC(=O)CNC(=O)[C@H](CCC(=O)O)NC(=O)[C@H](CC(C)C)NC(=O)[C@H](Cc1ccc(O)cc1)NC(=O)[C@H](CO)NC(=O)[C@H](CO)NC(=O)[C@@H](NC(=O)[C@H](CC(=O)O)NC(=O)[C@H](CO)NC(=O)[C@@H](NC(=O)[C@H](Cc1ccccc1)NC(=O)[C@@H](NC(=O)CNC(=O)[C@H](CCC(=O)O)NC(=O)[C@H](C)NC(=O)[C@@H](N)Cc1c[nH]cn1)[C@@H](C)O)[C@@H](C)O)C(C)C)C(=O)N[C@@H](C)C(=O)N[C@@H](Cc1c[nH]c2ccccc12)C(=O)N[C@@H](CC(C)C)C(=O)N[C@H](C(=O)N[C@@H](CCCNC(=N)N)C(=O)NCC(=O)N[C@@H](CCCNC(=N)N)C(=O)NCC(=O)O)C(C)C | DPP4 (Homo sapiens, UniProt P27487) | substrate, HPLC-UV | – | pH 7.4, 37 °C | – | half-life | ~18 min |

Repeated from above:
| Structure (SMILES) | target | assay | test system | conditions | scale | endpoint | value |
| --- | --- | --- | --- | --- | --- | --- | --- |
| [64Cu+2].c1ccc(CNCc2ccc(CN3CCCN4CCNCCCN(CC4)CC3)cc2)nc1 | CXCR4 | – | NOD/SCID mouse, U87 and U87-stb-CXCR4 xenografts, liver | iv, 480 min, ex vivo | – | tissue uptake | 82 ± 11.7 %ID/g |
| COc1cc(-c2nc3ccccc3s2)cc(CN2Cc3cccc(n3)CN(CC(=O)O)Cc3cccc(n3)C2)c1O | copper(2+) ion | Cu2+ binding, from titration constants | aqueous solution | 50 µM, pH 7.4, Cu:ligand 1:1, equal totals | – | pCu | 14.1 |
| [11CH3]N1CCN(CCCOc2ccc(=O)n(-c3ccc(Cl)c(Cl)c3)n2)CC1 | Sigmar1 (Mus musculus, UniProt O55242) | radiotracer | mouse BALB/c male, whole brain | intravenous | – | Tmax | ~5 min |
